# Measured values pooled from the literature.
# Lines come from different studies, so protocols differ. Several values in a cell are separate wells, animals, samples, runs or records.
# CASP9: Caspase-9 (CASP9, Homo sapiens, UniProt P55211)
# USP5: Ubiquitin carboxyl-terminal hydrolase 5 (USP5, Homo sapiens, UniProt P45974)
# Lysophospholipase-like protein 1: Lysophospholipase-like protein 1 (Mus musculus, UniProt Q3UFF7)
# CASP4: Caspase-4 (CASP4, Homo sapiens, UniProt P49662)
SMILES,target,assay,test system,setting,how to read,quantity,value
CC(=O)N[C@@H](CCCCN)C(=O)N[C@H](C(=O)N[C@@H](Cc1ccc(O)cc1)C(=O)N[C@@H](Cc1ccc(O)cc1)C(=O)N[C@@H](CCCNC(=N)N)C(=O)N[C@@H](Cc1ccc(O)cc1)C(=O)N[C@@H](CC(N)=O)C(=O)NCC(=O)N[C@@H](CCCCN)C(=O)N[C@H](C(=O)N[C@@H](Cc1c[nH]c2ccccc12)C(=O)N[C@@H](Cc1c[nH]c2ccccc12)C(=O)N[C@@H](CCCNC(=N)N)C(=O)O)C(C)C)C(C)C,"Insulin (INS, Bos taurus, UniProt P01317)",circular dichroism,,"800 min, final stage after heating, with: INS 350 µM",,β-strand content,47%
CC(=O)N[C@@H](CC(C)C)C(=O)N[C@@H](CCC(=O)O)C(=O)N[C@@H](COCc1ccccc1)C(=O)N[C@@H](CC(=O)O)C(=O)COC(=O)c1c(C)cccc1C,CASP9,"enzyme activity, inhibitor",,,,kinact/KI,127000 M⁻¹ s⁻¹
COC(=O)c1ccccc1NC(=O)Nc1ccc(N2CCOCC2)c2nonc12,USP5,"enzyme activity, inhibitor",,17 µM,,inhibition,51%
Nc1nc(SCc2ccc(Cl)cc2)nn1S(=O)(=O)c1cccc(NC(=O)c2ccccc2)c1,Lysophospholipase-like protein 1,"enzyme activity, activator, gel-based ABPP",purified protein,"concentration not given, with: FP-rhodamine",reference: DMSO,probe labeling increase,3.1 fold
CC[C@H](C)[C@@H]1NC(=O)[C@H](Cc2ccccc2)NC(=O)[C@H](CCC(=O)O)NC(=O)[C@H](CCCNC(=N)N)NC(=O)CNC(=O)[C@@H](NC(=O)[C@H](CC(C)C)NC(=O)[C@H](CCCNC(=N)N)NC(=O)[C@@H](NC(=O)CNC(=O)[C@H](Cc2ccc(O)cc2)NC(=O)[C@@H]2CCCN2C(=O)[C@H](C)NC(=O)[C@H](C)NC(=O)[C@@H](N)CCCNC(=N)N)C(C)C)CSSC[C@@H]2NC(=O)[C@@H](NC(=O)[C@H](CO)NC(=O)[C@H](CO)NC(=O)[C@H](CO)NC(=O)[C@H](CC(C)C)NC(=O)CNC(=O)[C@H](C)NC(=O)[C@H](CC(C)C)NC(=O)[C@@H](NC(=O)[C@@H](N)CC(=O)O)C(C)C)CSSC[C@H](NC(=O)CNC(=O)[C@H](Cc3c[nH]c4ccccc34)NC(=O)[C@H](CCCCN)NC2=O)C(=O)N[C@@H](CO)C(=O)N[C@@H](CCCCN)C(=O)N[C@@H](CO)C(=O)N[C@@H](CCC(=O)O)C(=O)N[C@@H]([C@@H](C)CC)C(=O)N[C@@H](CO)C(=O)N[C@@H](CO)C(=O)N[C@@H](CC(C)C)C(=O)N[C@H](C(=O)O)CSSC[C@@H](C(=O)NCC(=O)NCC(=O)N[C@@H](CO)C(=O)N[C@@H](CCCNC(=N)N)C(=O)N[C@@H](Cc2c[nH]c3ccccc23)C(=O)O)NC(=O)[C@H]([C@@H](C)O)NC(=O)[C@H](Cc2ccccc2)NC(=O)[C@H]([C@@H](C)CC)NC(=O)[C@H](C(C)C)NC(=O)[C@H](C)NC(=O)[C@H](CCCNC(=N)N)NC1=O,"RXFP4 (Homo sapiens, UniProt Q8TDU9, W97A)",agonist,,"W97A mutant, unit not given",reference: wild type,change in pEC50,-2.78 and -2.43 and -2.72 and -2.83
COc1ccc(NC(=O)c2cnn(-c3ccc([N+](=O)[O-])cc3)c2C(F)(F)F)cc1OC,"PTGS2 (Homo sapiens, UniProt P35354)","enzyme activity, inhibitor",,,reference: COX-1 IC50 over COX-2 IC50,selectivity ratio,1.14
CC(=O)NCCCC[C@H](NC(C)=O)C(=O)N[C@@H](CCCC(=O)O)C(=O)N[C@@H](C)C(=O)N[C@@H](CC(=O)O)C(=O)COC(=O)c1c(C)cccc1C,CASP4,"enzyme activity, inhibitor",,,,kinact/KI,20400 M⁻¹ s⁻¹
CC1=CSC(=C(C#N)C(=O)N2CCCCC2)N1c1ccccc1,USP5,"enzyme activity, inhibitor",,17 µM,,inhibition,2%
CN(/N=C/c1ccc(F)cc1C(=O)NO)c1nc(-c2ccccc2Cl)cs1,"DHODH (Homo sapiens, UniProt Q02127)","enzyme activity, inhibitor, DCIP colorimetric",,123.46 nM,,percent effect,10.8% and 13.9% and 9.88%
COc1ccccc1-c1ccncc1C(=O)Nc1nnc(OCc2ccc(Cl)cc2)s1,"DNA polymerase theta, helicase domain (POLQ, Homo sapiens, UniProt O75417)","ATPase activity, ADP-Glo",,"0.03 µM, with: ATP 600 µM",,remaining activity,51%
CC[C@H](C)[C@H](NC(C)=O)C(=O)N[C@@H](CCC(=O)O)C(=O)N[C@H](C(=O)N[C@@H](CC(=O)O)C(=O)COC(=O)c1c(C)cccc1C)[C@@H](C)O,CASP4,"enzyme activity, inhibitor",,,,kinact/KI,13000 M⁻¹ s⁻¹
Cc1cc(C)cc(COc2cc3c(cc2OCc2cc(C)cc(C)c2)C2CC(O)(Cc4cn(CCOCCOCCNC(=O)CCCCC5SCC6NC(=O)NC65)nn4)CC(C)N2CC3)c1 (stereo not shown),"Putative protein FAM10A4 (ST13P4, Homo sapiens, UniProt Q8IZP2)","biotinylated probe pull-down, measured: ST13P4",,10 µM probe,reference: heavy over light,SILAC ratio,1.92
CC(=O)N[C@@H](CCCNC(=N)N)C(=O)N[C@H](C(=O)N[C@@H](CCCCN)C(=O)N[C@@H](CO)C(=O)N[C@@H](CCCNC(=N)N)C(=O)N[C@H](C(=O)N[C@@H](Cc1c[nH]c2ccccc12)C(=O)N[C@@H](C)C(=O)N[C@@H](Cc1ccccc1)C(N)=O)[C@@H](C)OP(=O)(O)O)[C@@H](C)O,"14-3-3 protein epsilon (Homo sapiens, UniProt P62258)","binding, SPR",,,,koff,0.045 s⁻¹
N#CN1CC[C@H](C(=O)Nc2nc3c(s2)CN(C(=O)Cn2cc(CNC(=O)CCCC[C@@H]4SC[C@@H]5NC(=O)N[C@@H]54)nn2)CC3)C1,"Isochorismatase domain-containing protein 2 (ISOC2, Homo sapiens, UniProt Q96AB3)","probe binding, affinity probe, neutravidin pull-down LC-MS/MS","HEK293T, cell lysate","5 µM, 1 h, single replicate, unit not given",higher = more pulled down,iBAQ abundance,2.28e+08 and 2.64e+08 and 5.46e+08
COc1cc(Nc2nccc(-c3cnn4nc(OC)ccc34)n2)cc(C(F)(F)F)c1,"EGFR (Homo sapiens, UniProt P00533, T790M)",binding,,1 µM,,remaining binding,77%
COc1ccc(NC(=O)Nc2ccc3c(c2)C(=O)N(C(C)CO)CC(C)C(CN(C)Cc2ccc4c(c2)OCO4)O3)cc1 (stereo not shown),"ABL1 (Homo sapiens, UniProt P00519, Q252H)",kinase activity,,0.03 µM,reference: control,remaining activity,103%
CC(=O)N1C[C@H](O)C[C@H]1C(=O)N[C@@H](CC(C)C)C(=O)N[C@@H](C)C(=O)N[C@@H](CC(=O)O)C(=O)COC(=O)c1c(C)cccc1C,CASP9,"enzyme activity, inhibitor",,,,kinact/KI,62200 M⁻¹ s⁻¹
C=CC(=O)N1CCCC(n2c(=O)c3ncccc3n(Cc3ccc(Oc4ccccc4)cc3)c2=O)C1 (stereo not shown),"NSUN2 (Homo sapiens, UniProt Q08J23)",thermal proteome profiling,,"10 µM, destabilized proteins, unit not given",reference: vehicle,melting temperature shift,-5.43
COc1cc(OC)cc(C2C(C#N)=C(N)Nc3oc(C)nc32)c1 (stereo not shown),USP5,"enzyme activity, inhibitor",,17 µM,,inhibition,10%
CC(C)[C@H](NC(=O)[C@H](Cc1ccccc1)NC(=O)c1ccc(C(C)(C)C)cc1)C(=O)N[C@@H](CCN1CCOCC1)C(=O)N[C@@H](CCCCN(C)C1CC2CCC1C2)C(=O)N[C@@H](CO)C(N)=O (stereo partly shown),"Chromobox protein homolog 8 (Homo sapiens, UniProt Q9HC52)",TR-FRET displacement,,,reference: IC50 CBX7 over IC50 CBX8,selectivity ratio,24
CC(=O)N1[C@H](C(=O)N[C@H](C(=O)N[C@@H](Cc2c[nH]cn2)C(=O)N[C@@H](CC(=O)O)C(=O)COC(=O)c2c(C)cccc2C)C(C)(C)C)C[C@@H]2CCCC[C@@H]21,CASP9,"enzyme activity, inhibitor",,,,kinact/KI,14900 M⁻¹ s⁻¹
COc1ccc(C(=O)c2c(C(=O)NCCCN(C)C)oc3ccc(Cl)cc3c2=O)cc1OC,"GHSR (Homo sapiens, UniProt Q92847)","G protein activation, agonist, BRET",HEK-293T,,,Emax,100%
CCN(CC)C(CO)c1cccc2c(C)c(C)oc12 (stereo not shown),"LPAR1 (Homo sapiens, UniProt Q92633, W271A)","G-protein dissociation, agonist, NanoBiT",HEK-293T,"1 µM, W271A mutant",reference: baseline luminescence,fold change,0.71 and 0.487 and 0.58 and 1 and 0.662 and 0.935
CN(C)C/C=C/C(=O)Nc1ccc2nc(NCCCCCN(C)C)nc(NCCCCCCN(C)C)c2c1,"SUV39H2 (Homo sapiens, UniProt Q9H5I1)","enzyme activity, inhibitor, radiometric",,50 µM,,inhibition,19%
CC(C)[C@@H]1NC(=O)[C@H](Cc2ccccc2)NC(=O)CSC[C@@H](C(N)=O)NC(=O)[C@H](CCC(=O)O)NC(=O)[C@H](CO)NC(=O)[C@H](Cc2c[nH]c3cccc(Cl)c23)NC(=O)[C@H](C2CCCCC2)NC(=O)[C@H](C(C)C)NC(=O)[C@H](Cc2ccc(O)cc2)NC(=O)[C@H](CC(=O)O)NC(=O)[C@H](Cc2c[nH]c3ccccc23)NC(=O)[C@H](Cc2ccc(N)nc2)NC(=O)[C@H](Cc2c[nH]c3ccc(Cl)cc23)NC(=O)[C@H](CCC(=O)O)NC1=O,"Interleukin-1 receptor-like 2 (IL1RL2, Homo sapiens, UniProt Q9HB29)","reporter gene (SEAP), inhibitor, HEK-Blue IL-36R reporter",HEK-Blue IL-36R cells,"11.11 µM, 6 h, with: IL-36γ 1 ng/mL",,remaining activity,8.7%
O=C1c2sc(-c3ccc(N4CCC(F)C4)nc3F)nc2CCN1c1cccnc1 (stereo not shown),"TAR DNA-binding protein 43, aggregated (TARDBP, Homo sapiens, UniProt Q13148)",radioligand binding,control brain sarkosyl-insoluble extract,3.53 nM,,specific binding,5 pM
OCc1nnc2n1N=C(c1ccc(Cl)cc1)CS2,USP5,"enzyme activity, inhibitor",,17 µM,,inhibition,7%
C=CC(=O)N1[C@H](c2ccc3c(c2)OCO3)c2[nH]c3ccccc3c2C[C@H]1C(=O)N1CCOCC1,"Hepatocyte nuclear factor 3-alpha (FOXA1, Homo sapiens, UniProt P55317)",ChIP-seq,22Rv1,"concentration not given, log2FC above 2",,increased binding sites,329 sites
CCCCCC=CC=C1C(=O)C=CC1CC=CCCCC(=O)O (stereo not shown),"Large ribosomal subunit protein eL24 (Homo sapiens, UniProt P83731)",competitive isoTOP-ABPP,"proteome, soluble, MDA-MB-231","100 µM, 60 min, with: iodoacetamide probe","reference: DMSO over compound-treated, higher = stronger cysteine blockade",isoTOP-ABPP competition ratio,5.9
N=C(N)NCCS(=O)(=O)O,"SLC6A6 (Homo sapiens, UniProt P31641, G62A)","binding, microscale thermophoresis",,"1.95 µM, room temperature, with: 50 nM labelled protein",higher = more binding,normalised MST signal,-0.0532
CC(=O)N[C@@H](CC(=O)O)C(=O)N[C@@H](Cc1ccc2ccccc2c1)C(=O)N[C@@H](C)C(=O)N[C@@H](CC(=O)O)C(=O)COC(=O)c1c(C)cccc1C,CASP4,"enzyme activity, inhibitor",,,,kinact/KI,1200 M⁻¹ s⁻¹
Nc1nc(SCc2ccccc2)nn1S(=O)(=O)c1ccc(F)cc1Cl,Lysophospholipase-like protein 1,"enzyme activity, activator, gel-based ABPP",purified protein,"concentration not given, with: FP-rhodamine",reference: DMSO,probe labeling increase,1.3 fold
CC[C@H](NC(=O)[C@@H](NC(=O)[C@H](CC(=O)O)NC(C)=O)[C@@H](C)O)C(=O)N[C@@H](CC(=O)O)C(=O)COC(=O)c1c(C)cccc1C,CASP9,"enzyme activity, inhibitor",,,,kinact/KI,22600 M⁻¹ s⁻¹
O=C(O)C1CC1C(=O)c1ccc(Cl)c(Cl)c1 (stereo not shown),"Kynurenine 3-monooxygenase, residues 1-394 (Saccharomyces cerevisiae, UniProt P38169)","substrate, HRP-coupled H2O2",,saturating,,H2O2 formation rate,0.056 µM/min
[2H]C([2H])([2H])C1(C([2H])([2H])[2H])NC(=O)N(c2ccc(F)c(C(C)(F)F)c2)C1=O,"Androgen receptor (AR, Homo sapiens, UniProt P10275)",reporter gene,LAPC4,"up to 100 µM, with: DHT",,transcriptional activity,no effect
CCCCCC(O)/C=C/C=O (stereo not shown),"MIF4G domain-containing protein (MIF4GD, Homo sapiens, UniProt A9UHW6)","competitive isoTOP-ABPP, measured: MIF4GD cysteine peptide","proteome, soluble, MDA-MB-231","100 µM, with: iodoacetamide probe","reference: DMSO over compound-treated, higher = stronger cysteine blockade",isoTOP-ABPP competition ratio,3.3
CC1CCCc2c(N)nc(N)nc21 (stereo not shown),"folA (Escherichia coli, UniProt P0ABQ4)",conformational gating model,,,,koff from excited state,18.7 s⁻¹

# For quick reference, copied from above:
SMILES,target,assay,test system,setting,how to read,quantity,value
C=CC(=O)N1CCCC(n2c(=O)c3ncccc3n(Cc3ccc(Oc4ccccc4)cc3)c2=O)C1 (stereo not shown),"NSUN2 (Homo sapiens, UniProt Q08J23)",thermal proteome profiling,,"10 µM, destabilized proteins, unit not given",reference: vehicle,melting temperature shift,-5.43
COc1cc(OC)cc(C2C(C#N)=C(N)Nc3oc(C)nc32)c1 (stereo not shown),USP5,"enzyme activity, inhibitor",,17 µM,,inhibition,10%
CC(C)[C@H](NC(=O)[C@H](Cc1ccccc1)NC(=O)c1ccc(C(C)(C)C)cc1)C(=O)N[C@@H](CCN1CCOCC1)C(=O)N[C@@H](CCCCN(C)C1CC2CCC1C2)C(=O)N[C@@H](CO)C(N)=O (stereo partly shown),"Chromobox protein homolog 8 (Homo sapiens, UniProt Q9HC52)",TR-FRET displacement,,,reference: IC50 CBX7 over IC50 CBX8,selectivity ratio,24
CC(=O)N1[C@H](C(=O)N[C@H](C(=O)N[C@@H](Cc2c[nH]cn2)C(=O)N[C@@H](CC(=O)O)C(=O)COC(=O)c2c(C)cccc2C)C(C)(C)C)C[C@@H]2CCCC[C@@H]21,CASP9,"enzyme activity, inhibitor",,,,kinact/KI,14900 M⁻¹ s⁻¹
COc1ccc(C(=O)c2c(C(=O)NCCCN(C)C)oc3ccc(Cl)cc3c2=O)cc1OC,"GHSR (Homo sapiens, UniProt Q92847)","G protein activation, agonist, BRET",HEK-293T,,,Emax,100%
